Measured values collected from several papers.
Parts stem from different laboratories: compare values within a part only. Substitutions count along the parent as printed.

Sample 1
Target: Prothrombin, mature alpha-thrombin (F2, Homo sapiens, UniProt P00734)
Technique: aptamer microarray, sandwich
Form: DNA with 2'F-ANA
Sample: in vitro
Concentration: 200 nM
Notes: whole 15-mer aptamer, many near background
Together with: Cy3 exosite-II aptamer, 400 nM
Direction: higher = stronger binding
Oligonucleotide: GGTTGGTGTGGTTGG
Modification | mean fluorescence intensity [a.u.]
2'F-ANA at 5 6 | 142
2'F-ANA at 1 5 6 8 9 10 | 46
2'F-ANA at 1 2 4 7 8 9 11 12 | 251
2'F-ANA at 1 2 5 9 10 11 14 | 45.7
2'F-ANA at 1 7 8 12 15 | 513
2'F-ANA at 1 3 4 6 7 12 | 383
2'F-ANA at 1 5 6 7 8 9 11 13 15 | 49.3
2'F-ANA at 4 6 7 9 13 | 151
2'F-ANA at 2 4 8 9 10 12 | 125
2'F-ANA at 1 3 5 6 9 10 12 13 14 15 | 48.4
2'F-ANA at 2 3 4 5 8 9 10 11 15 | 50.3
2'F-ANA at 2 4 5 6 8 9 10 11 14 | 47.9
2'F-ANA at 1 4 5 10 13 | 43.4
2'F-ANA at 2 4 6 9 10 11 12 14 15 | 63.3
2'F-ANA at 1 3 7 8 10 13 | 76.7
2'F-ANA at 1 4 7 10 12 13 14 | 42.1
2'F-ANA at 1 4 9 10 12 13 14 | 58.7
2'F-ANA at 5 10 12 13 15 | 44.7
2'F-ANA at 2 7 8 9 12 15 | 678
2'F-ANA at 1 3 4 5 12 15 | 108

Sample 2
Target: Interferon regulatory factor 3, full length, phosphomimetic (IRF3, Homo sapiens, UniProt Q14653, residues 1-427, S386D/S396D/S398D/S402D/T404D/S405D)
Sequence of UniProt Q14653 (whole entry, unmodified, looked up): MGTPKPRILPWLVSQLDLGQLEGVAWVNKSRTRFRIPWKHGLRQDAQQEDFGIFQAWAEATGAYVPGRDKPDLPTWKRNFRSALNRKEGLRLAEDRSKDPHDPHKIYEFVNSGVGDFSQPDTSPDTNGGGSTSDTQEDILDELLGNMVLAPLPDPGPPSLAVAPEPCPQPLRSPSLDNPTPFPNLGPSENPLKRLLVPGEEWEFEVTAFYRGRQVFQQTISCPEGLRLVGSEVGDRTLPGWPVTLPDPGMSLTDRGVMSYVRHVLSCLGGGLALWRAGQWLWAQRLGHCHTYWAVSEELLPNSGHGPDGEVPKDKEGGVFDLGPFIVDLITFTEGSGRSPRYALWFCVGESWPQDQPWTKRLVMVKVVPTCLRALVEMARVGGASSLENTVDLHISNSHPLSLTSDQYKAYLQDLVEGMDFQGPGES
Technique: protein-binding microarray
Form: double-stranded DNA, one strand shown
Sample: in vitro
Concentration: 2540 nM top
Notes: 60-bp whole probe
Together with: salmon DNA 0.4 mg/ml
Reference: random background probes
Direction: higher = stronger binding
Constant ends, left off below: GCCTAGCAC … GTCTTGATTCGCTTGACGCTGCTG
Oligonucleotide | fitted relative affinity
TCACTACTGTATTTGGCACTGTGCTAG | 0.0727 z-score
GAACATTTCAATTAGAAAAAGTGCTAG | 0.99 z-score
GACGGTTTCGGTCTCTGGACGTGCTAG | 8.35 z-score
TTACAACTGAGTATCGATTAGTGCTAG | 0.314 z-score
GACGGACTGGGTTTCGGAACGTGCTAG | 3.19 z-score
TTAGGACTGCTTATCCTTCAGTGCTAG | -0.232 z-score
TTAGATTTCAGTCTCGCTTAGTGCTAG | 2.26 z-score
GACGGTATCGACTTACGGGACGTGCTA | 1.06 z-score
TTCCAGCTGGTGACTAGCGAGTGCTAG | -0.627 z-score
TTAGTTTTCGGGACTGGGTTAGTGCTA | 1.8 z-score
TCAATCGTAAGCAAAAAACTGTGCTAG | -0.113 z-score

Sample 3
Target: CCNB1, cyclin fold, Cln2 fusion (human)
Technique: yeast growth competition, sequencing
Sample: yeast
Notes: strong parent motif
Reference: not given
Direction: higher = stronger binding
Starting sequence: PKMYT1 docking peptide (human); SFEPRNLLSLFED
Variant | normalised enrichment score
SNEPRNLLSLFED [F2N] | -0.23
SFEPRNLNSLFED [L8N] | 0.842
SFEPRNLLSLFQD [E12Q] | 0.414
SFEPRNLLSFFED [L10F] | 0.567
SFEPRNLLSLFEA [D13A] | 0.382
SFEPRNLLSLFES [D13S] | 1.01
SFEPRNLLSLFYD [E12Y] | 0.521
SFEARNLLSLFED [P4A] | 0.2
QFEPRNLLSLFED [S1Q] | 1.67
SFEPRNLLSLFID [E12I] | 0.352
SFEPRNLLSLFDD [E12D] | 1.16
SFWPRNLLSLFED [E3W] | 0.477
SFEPRNLWSLFED [L8W] | 0.357
SFEVRNLLSLFED [P4V] | 0.639
SFEPRNLLSLWED [F11W] | 0.574
SFEPRNLLSLFEN [D13N] | 1.66

Sample 4
Target: ABI1, truncated, D143A, DHFR fusion (Arabidopsis thaliana)
Technique: DHFR PCA, deep sequencing
Sample: yeast
Notes: methotrexate growth selection, single substitutions
Together with: (+)-ABA 0.0091 µM
Reference: wild-type fitted maximum
Direction: higher = stronger binding
Starting sequence: PYL1, truncated, DHFR fusion (Arabidopsis thaliana); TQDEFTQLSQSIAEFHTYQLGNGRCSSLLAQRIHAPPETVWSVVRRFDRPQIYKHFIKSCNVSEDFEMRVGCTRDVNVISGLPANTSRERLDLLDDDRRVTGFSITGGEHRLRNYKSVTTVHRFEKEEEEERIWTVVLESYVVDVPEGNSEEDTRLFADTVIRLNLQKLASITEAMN
Variant | relative binding score [%]
V43C | 1.7
T39H | 5.09
V40C | -1.43
E139F | -7.56
G23N | 25.7
E130P | 67.9
A13R | 38.2
E152T | 8.57
G107V | -5.16
W41I | -2.22
V44I | 11.6
A84H | 72.3
I52E | 21.7
V62K | -0.443
T154G | -2.97
R132D | 60
N114D | 13.5
F157L | 3.8
